Experimental data of several laboratories.
Numbered parts are unrelated; each lists some results of a single study. ± gives the spread as reported.
Chain of UniProt P11388 (whole entry, looked up): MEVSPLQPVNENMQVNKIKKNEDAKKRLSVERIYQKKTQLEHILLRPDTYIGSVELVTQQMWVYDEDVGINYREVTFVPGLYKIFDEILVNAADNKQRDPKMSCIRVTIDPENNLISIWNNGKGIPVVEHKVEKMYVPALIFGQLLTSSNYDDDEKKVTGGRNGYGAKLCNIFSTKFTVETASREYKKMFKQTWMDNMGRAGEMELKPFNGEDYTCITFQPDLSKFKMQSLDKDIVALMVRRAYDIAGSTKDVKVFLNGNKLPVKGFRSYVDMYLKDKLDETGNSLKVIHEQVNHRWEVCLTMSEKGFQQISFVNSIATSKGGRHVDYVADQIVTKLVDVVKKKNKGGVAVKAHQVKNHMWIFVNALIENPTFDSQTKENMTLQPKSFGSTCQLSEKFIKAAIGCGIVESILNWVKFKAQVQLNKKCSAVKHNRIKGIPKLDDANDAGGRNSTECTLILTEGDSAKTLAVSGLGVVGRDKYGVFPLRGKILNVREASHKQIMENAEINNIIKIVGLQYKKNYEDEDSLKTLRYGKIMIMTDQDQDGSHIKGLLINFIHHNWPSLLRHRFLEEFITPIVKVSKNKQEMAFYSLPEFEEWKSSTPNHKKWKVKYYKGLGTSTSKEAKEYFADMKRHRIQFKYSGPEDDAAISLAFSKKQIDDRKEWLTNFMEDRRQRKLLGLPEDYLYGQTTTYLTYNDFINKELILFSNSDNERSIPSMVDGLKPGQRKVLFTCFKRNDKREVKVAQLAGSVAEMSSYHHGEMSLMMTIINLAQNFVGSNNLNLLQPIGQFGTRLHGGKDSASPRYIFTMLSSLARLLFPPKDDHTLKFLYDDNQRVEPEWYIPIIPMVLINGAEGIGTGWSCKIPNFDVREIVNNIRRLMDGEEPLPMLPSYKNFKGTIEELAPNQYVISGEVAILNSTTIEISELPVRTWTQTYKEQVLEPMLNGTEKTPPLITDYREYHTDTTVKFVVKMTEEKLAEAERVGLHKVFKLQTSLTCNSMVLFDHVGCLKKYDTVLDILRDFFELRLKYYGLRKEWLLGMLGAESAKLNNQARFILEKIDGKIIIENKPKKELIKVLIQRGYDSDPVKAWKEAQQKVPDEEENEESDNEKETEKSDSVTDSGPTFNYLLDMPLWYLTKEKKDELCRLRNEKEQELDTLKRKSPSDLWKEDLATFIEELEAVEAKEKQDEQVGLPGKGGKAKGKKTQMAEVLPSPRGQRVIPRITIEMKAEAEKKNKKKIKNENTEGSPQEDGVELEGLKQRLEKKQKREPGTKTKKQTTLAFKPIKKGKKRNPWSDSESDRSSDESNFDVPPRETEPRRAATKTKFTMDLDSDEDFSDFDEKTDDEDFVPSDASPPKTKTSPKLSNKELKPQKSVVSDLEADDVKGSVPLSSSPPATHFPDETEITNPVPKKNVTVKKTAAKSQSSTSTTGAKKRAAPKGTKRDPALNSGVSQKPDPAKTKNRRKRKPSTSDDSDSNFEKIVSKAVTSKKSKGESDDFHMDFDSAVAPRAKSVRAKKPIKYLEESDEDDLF

Block 1
SMILES: Fc1ccccc1Cc1nc(-c2nc(C(F)(F)F)n[nH]2)cn2ccnc12
Species: healthy volunteers
Setting: single ascending dose
Reference: placebo
Endpoint: choice reaction time
1 mg: -2.32 ms
30 mg: -19.3 ms
10 mg: -26.6 ms
50 mg: -25 ms

Single results of other studies
B1: susB (Bacteroides thetaiotaomicron, UniProt G8JZS4); chain QQKLTSPDNNLVMTFQVDSKGAPTYELTYKNKVVIKPSTLGLELKKEDNTRTDFDWVDRRDLTKLDSKTNLYDGFEVKDTQTATFDETWQPVWGEEKEIRNHYNELAVTLYQPMNDRSIVIRFRLFNDGLGFRYEFPQQKSLNYFVIKEEHSQFGMNGDHIAFWIPGDYDTQEYDYTISRLSEIRGLMKEAITPNSSQTPFSQTGVQTALMMKTDDGLYINLHEAALVDYSCMHLNLDDKNMVFESWLTPDAKGDKGYMQTPCNTPWRTIIVSDDARNILASRITLNLNEPCKIADAASWVKPVKYIGVWWDMITGKGSWAYTDELTSVKLGETDYSKTKPNGKHSANTANVKRYIDFAAAHGFDAVLVEGWNEGWEDWFGNSKDYVFDFVTPYPDFDVKEIHRYAARKGIKMMMHHETSASVRNYERHMDKAYQFMADNGYNSVKSGYVGNIIPRGEHHYGQWMNNHYLYAVKKAADYKIMVNAHEATRPTGICRTYPNLIGNESARGTEYESFGGNKVYHTTILPFTRLVGGPMDYTPGIFETHCNKMNPANNSQVRSTIARQLALYVTMYSPLQMAADIPENYERFMDAFQFIKDVALDWDETNYLEAEPGEYITIARKAKDTDDWYVGCTAGENGHTSKLVFDFLTPGKQYIATVYADAKDADWKENPQAYTIKKGILTNKSKLNLHAANGGGYAISIKEVKDKSEAKGLKRL
COC(=O)Nc1c(N)nc(-c2nn(Cc3ccccc3F)c3ncc(F)cc23)nc1N — AUC (humans, plasma; oral, 10 mg single dose, phase I DDI study, alone): 4930 ng·h/mL
COc1cc([C@@H]2c3cc4c(cc3[C@@H](O[C@@H]3O[C@@H]5CO[C@@H](C)O[C@H]5[C@H](O)[C@H]3O)[C@H]3COC(=O)[C@H]23)OCO4)cc(OC)c1O — inhibition (DNA topoisomerase 2-alpha (TOP2A, Homo sapiens, UniProt P11388); DNA decatenation, inhibitor, gel-based decatenation; 125 µM): 96.3%
B1 (susB) — kcat (O=[N+]([O-])c1ccc(O[C@H]2O[C@H](CO)[C@@H](O)[C@H](O)[C@H]2O)cc1; steady-state kinetics; pH 6.6): 23.9 ± 1.1 s⁻¹
N#CCC1CCN(c2nc(Nc3ccc(N4CCC(O)CC4)cc3)c3c(=O)[nH]ncc3n2)CC1 — IL-18 level difference (vs placebo, Olink multiplex; human, serum; 20 mg, day 29, unit not given; reference: placebo): -1.05
